Measured values gathered from unrelated publications.
A part holds a random share of what one study measured.

Study 1
Target: Interferon regulatory factor 7, full length, phosphomimetic (IRF7, Homo sapiens, UniProt Q92985, residues 1-503, S471D/S472D/S475D/S476D/S477D/S483D/S484D/S487D)
Method: protein-binding microarray
Molecule type: double-stranded DNA, one strand shown
Medium: in vitro
Concentration: 2200 nM top
Setting: 60-bp whole probe
Added: salmon DNA 0.4 mg/ml
Reference: random background probes
Direction: higher = stronger binding
All sequences stand within: GCCTAGCAC … GTCTTGATTCGCTTGACGCTGCTG
Construct (chain): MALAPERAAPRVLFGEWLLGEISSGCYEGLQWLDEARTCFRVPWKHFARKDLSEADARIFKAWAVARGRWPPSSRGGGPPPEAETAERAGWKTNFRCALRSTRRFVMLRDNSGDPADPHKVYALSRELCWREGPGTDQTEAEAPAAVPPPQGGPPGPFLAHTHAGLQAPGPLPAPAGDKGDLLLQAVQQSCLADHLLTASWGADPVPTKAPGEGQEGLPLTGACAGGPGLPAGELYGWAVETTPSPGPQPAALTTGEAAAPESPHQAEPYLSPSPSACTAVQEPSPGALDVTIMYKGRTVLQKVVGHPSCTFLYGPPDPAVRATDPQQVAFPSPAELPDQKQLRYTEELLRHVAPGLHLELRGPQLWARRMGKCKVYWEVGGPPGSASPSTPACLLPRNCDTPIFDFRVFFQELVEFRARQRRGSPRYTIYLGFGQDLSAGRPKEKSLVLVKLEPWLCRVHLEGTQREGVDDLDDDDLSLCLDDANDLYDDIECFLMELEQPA
Under “fitted relative affinity”, `TTGTTTTACAATTTGCTTTAGTGCTAG` is recorded as 2.11 z-score.
`GACGGTATTCTACTGCTGACGTGCTAG` — result for “fitted relative affinity”: 0.625 z-score.
For `GAGGGTTTCCTACTGCTGACGTGCTAG`, “fitted relative affinity” read 0.411 z-score.
For `TCAGTGTTCTTTTCTGTTACTGTGCTA`, “fitted relative affinity” read 1.95 z-score.
`TTAGGTCTCGGTCTCGGCTAGTGCTAG`: “fitted relative affinity” 0.302 z-score.
`GCAAAAATGATTGGTTGAACGTGCTAG`: “fitted relative affinity” -0.46 z-score.
Under “fitted relative affinity”, `GACGAACTGGGGACTGGCGACGTGCTA` is recorded as -0.342 z-score.
For `TTAGGTATCGGTATCAGTTAGTGCTAG`, “fitted relative affinity” read 0.818 z-score.
For `GACGGTATCCTTCACCTGACGTGCTAG`, “fitted relative affinity” read 0.951 z-score.
For `TCATCATTGCCTATTTTTCCGTGCTAG`, “fitted relative affinity” read 1.7 z-score.
`TCTTTTATTTTTTTTATTTAGTGCTAG` — result for “fitted relative affinity”: 1.76 z-score.
`ATAGGTTTCGGTCTCGGTTAGTGCTAG`: “fitted relative affinity” 6.89 z-score.
For `TTAGATCTTAGTCTCGATTAGTGCTAG`, “fitted relative affinity” read 0.242 z-score.
`TCTACAATGGCTTTGCCTTTGTGCTAG`: “fitted relative affinity” -0.0162 z-score.
`GACGGTTTCGGTCTTGGGACGTGCTAG`: “fitted relative affinity” 6.79 z-score.
Under “fitted relative affinity”, `GACGGACCGGACTTTCGGGACGTGCTA` is recorded as 1.83 z-score.
`GACGGTTTCGGTCTCCGGACGTGCTAG`: “fitted relative affinity” 8.16 z-score.
`TTAGGTATCGGTCTCGGTTGGTGCTAG`: “fitted relative affinity” 0.962 z-score.
`CTTAGCATGGGGAGGGAGCAGTGCTAG` — result for “fitted relative affinity”: -0.126 z-score.
Under “fitted relative affinity”, `TCAGTTTTTCATTTTGTACTGTGCTAG` is recorded as 3.28 z-score.
`GCTCATTTTTTTTGCAAGCTGTGCTAG`: “fitted relative affinity” 0.81 z-score.
For `TTAGGACTGGGGTTACGGTTAGTGCTA`, “fitted relative affinity” read -0.262 z-score.
Under “fitted relative affinity”, `TTAGATGTCAGTTTCGATTAGTGCTAG` is recorded as 5.82 z-score.
For `GACGATATCAATCTCGAGACGTGCTAG`, “fitted relative affinity” read 0.329 z-score.
`TTAGAACTGGGGTTTCGATTAGTGCTA` — result for “fitted relative affinity”: 2.3 z-score.

Study 2
Target: RING finger protein unkempt homolog, zinc fingers 1-6, GST-SBP tag (UNK, Homo sapiens, UniProt Q9C0B0, residues 30-357)
Method: RNA Bind-n-Seq
Molecule type: RNA
Medium: in vitro
Concentration: not given
Setting: RNA with constant flanks, ends assumed
Reference: input RNA pool
Direction: higher = stronger binding
Construct (chain): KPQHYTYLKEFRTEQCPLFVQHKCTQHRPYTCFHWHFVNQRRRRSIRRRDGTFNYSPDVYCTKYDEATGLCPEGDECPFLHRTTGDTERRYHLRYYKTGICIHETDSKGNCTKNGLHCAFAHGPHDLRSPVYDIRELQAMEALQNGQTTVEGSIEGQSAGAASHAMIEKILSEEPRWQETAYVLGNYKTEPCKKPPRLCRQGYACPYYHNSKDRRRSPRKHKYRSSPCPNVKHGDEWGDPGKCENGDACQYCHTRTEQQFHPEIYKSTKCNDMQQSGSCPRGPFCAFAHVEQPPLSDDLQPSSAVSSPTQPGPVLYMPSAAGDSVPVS
`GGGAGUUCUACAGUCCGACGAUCCUGCUGCAGGGUUGGUACAUUGUGACCUAUGCCUUGGGGAUCUACCAUCUAAAUCUUUUCACCGCUUUUCUUUCUCCCAAAGUGGAUCCUUCCUUAAUGGAAGACUCAGAUGACGGUCCUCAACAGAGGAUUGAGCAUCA` has a bound/input enrichment of 0.235 ratio.
`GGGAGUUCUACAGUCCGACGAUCUUAUGGUGCACUUUUUCGCUAUUUAAGUUGGAUAUUUCUCUACAUUCCUGAAACAAUUUUCCGGUUUUUUUUGUACUAGAAAAUGCAGGCAGUGUUUUCACAAAAGUAAAUGUACAGUGACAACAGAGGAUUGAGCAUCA` gave a bound/input enrichment of 0.156 ratio.
`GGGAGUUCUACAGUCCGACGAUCAUGGGCUUUCAUGUAAUCUAUAAGACACCCUGUGGUCUCUGCCUUCGGACGAUGCAGGAGACCGAGCGCUACCUUUUUGAGACUGGCUGUGACUUUCUGUUCCUGGAGAUGUUCUGUUUGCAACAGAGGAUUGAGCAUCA` gave a bound/input enrichment of 0.461 ratio.
`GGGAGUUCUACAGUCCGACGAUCGAGGAAGAGGAGGAGGAGAGCCCCGACACAGGUGGAGAAUAUAAAUAUUCAGGAAGAGACCGCUUGAUUUUUCUGGUUGAUGCCUCCAGGGCUAUGUUCGAAUCUCAGGGUGAAGAUGAACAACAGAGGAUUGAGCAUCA` gave a bound/input enrichment of 0.261 ratio.
With `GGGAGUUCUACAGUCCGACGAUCGUUAUUUUAAUAAUUCCUUUAAAUUUUAUCUGUUGCUGUUACCUCUUGAAAUAUGAUUUAUUCCGAUUGCUAAUCCCACUCAUUCAGGAAAUGCCAAGAGGUUUUCUGUGGGGGAAAUGGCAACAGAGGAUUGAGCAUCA` the bound/input enrichment was 3.06 ratio.
`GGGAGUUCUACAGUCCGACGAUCCUACCUAACCCUUUCUUAUUUGUAUUUGUUUUAGUAUUGUGAAGUUGUGUUAAAUAGUACCCGCCCGAAAUACAAAUUUCUGGUUAUCAUUUCUCUUCCCUGUGGCACUUGACAUUUUAACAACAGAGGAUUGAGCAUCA` has a bound/input enrichment of 2.72 ratio.
The bound/input enrichment of `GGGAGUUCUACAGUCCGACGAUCCCUGAAGUGCGACACCACUGUCCCAAUACUCCUAUCAUCCUCGUGGGGACGAAGCUUGAUCUCCGGGAUGAUAAGGACACCAUUGAGAAGCUGAAGGAGAAGAAGCUGACUCCCAUCACCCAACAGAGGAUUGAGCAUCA` is reported as 0.05 ratio.
For `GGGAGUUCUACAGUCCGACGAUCCUCCCUUUUCACCCACCUUUCCUCCCUCACCUCUCCUCACCUCCACCCCCUCCCCAGAGCACCCGUCAUGCCGCAAAUGCUAGGAAGUGCCAUUUUCAUUUUCUCCACUGUGCGUGUGUGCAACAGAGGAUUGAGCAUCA`, the bound/input enrichment was 0.659 ratio.

Study 3
Target: Prothrombin, mature alpha-thrombin (F2, Homo sapiens, UniProt P00734)
Method: aptamer microarray, sandwich
Molecule type: DNA with 2'F-ANA
Medium: in vitro
Concentration: 200 nM
Setting: whole 15-mer aptamer, many near background
Added: Cy3 exosite-II aptamer, 400 nM
Direction: higher = stronger binding
Sequence: GGTTGGTGTGGTTGG
Under “mean fluorescence intensity”, `2'F-ANA at 1 3 4 5 6 8 9 10 11 13 15` is recorded as 49.6 a.u.
`2'F-ANA at 4 7 9 10 11 14 15`: “mean fluorescence intensity” 62.2 a.u.
`2'F-ANA at 1 3 6 7 9 11 14` — result for “mean fluorescence intensity”: 85.2 a.u.
Under “mean fluorescence intensity”, `2'F-ANA at 2 6 7 8 9 10 11 15` is recorded as 110 a.u.
`2'F-ANA at 3 4 6 8 9 12 13 14 15` — result for “mean fluorescence intensity”: 246 a.u.
Under “mean fluorescence intensity”, `2'F-ANA at 4 6 7 8 9 12 15` is recorded as 507 a.u.
For `2'F-ANA at 1 3 5 7 11 12 13 14`, “mean fluorescence intensity” read 45 a.u.
`2'F-ANA at 1 2 5 6 8 10 11 13 14 15` — result for “mean fluorescence intensity”: 53.6 a.u.
`2'F-ANA at 2 3 4 5 6 8 10 12 15` — result for “mean fluorescence intensity”: 60.4 a.u.
`2'F-ANA at 3 4 5 8 9 10 14`: “mean fluorescence intensity” 48.2 a.u.
For `2'F-ANA at 1 2 6 8 10 12 13 14`, “mean fluorescence intensity” read 52.1 a.u.
`2'F-ANA at 1 10 11 14 15`: “mean fluorescence intensity” 49.1 a.u.
Under “mean fluorescence intensity”, `2'F-ANA at 1 2 3 4 5 10 11 12 13 15` is recorded as 64.4 a.u.
For `2'F-ANA at 1 3 4 5 6 7 8 15`, “mean fluorescence intensity” read 68 a.u.
`2'F-ANA at 1 3 5 7 9 10 11 12 15` — result for “mean fluorescence intensity”: 56.3 a.u.
Under “mean fluorescence intensity”, `2'F-ANA at 1 2 3 4 6 7 8 9 11 12` is recorded as 315 a.u.
`2'F-ANA at 1 4 5 6 10 14`: “mean fluorescence intensity” 47.2 a.u.
`2'F-ANA at 4 5 7 8 11 12` — result for “mean fluorescence intensity”: 134 a.u.
`2'F-ANA at 1 3 6 8 9 12 13`: “mean fluorescence intensity” 432 a.u.
`2'F-ANA at 3 5 12` — result for “mean fluorescence intensity”: 319 a.u.
For `2'F-ANA at 2 4 5 7 8 9 10 11 13 14`, “mean fluorescence intensity” read 48.8 a.u.
`2'F-ANA at 2 6 7 8 10 11 12 15`: “mean fluorescence intensity” 133 a.u.
Under “mean fluorescence intensity”, `2'F-ANA at 1 8 12 13` is recorded as 400 a.u.
For `2'F-ANA at 5 6 7 9 10 12 13`, “mean fluorescence intensity” read 50 a.u.
Under “mean fluorescence intensity”, `2'F-ANA at 5 6 7 8 9 10 12 15` is recorded as 52.8 a.u.

Study 4
Target: Histone acetyltransferase KAT6A, both winged helices, GST fusion (KAT6A, Homo sapiens, UniProt Q92794, residues 1-181)
Method: protein binding microarray
Molecule type: double-stranded DNA, one strand shown
Medium: in vitro
Concentration: not given
Setting: 8-mer, flanks averaged, mean of 2 arrays, mostly near background
Reference: not given
Direction: higher = stronger binding
Target sequence (chain): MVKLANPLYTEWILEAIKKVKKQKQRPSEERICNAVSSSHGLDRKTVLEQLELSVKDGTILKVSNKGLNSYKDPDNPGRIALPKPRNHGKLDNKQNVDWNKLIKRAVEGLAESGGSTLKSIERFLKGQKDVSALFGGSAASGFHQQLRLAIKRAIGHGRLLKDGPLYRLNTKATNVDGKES
The E-score of `GAAGGACC` is reported as -0.0112.
`AAATACAA` gave an E-score of -0.00799.
For `ACTAAAAG`, the E-score was -0.0766.
With `ACCCTCCT` the E-score was -0.182.
`ACCTGTTG` has an E-score of -0.164.
The E-score of `CGGTTTAC` is reported as 0.242.
The E-score of `AGTGTACC` is reported as -0.0763.
`AAACAGCG` has an E-score of 0.0969.
`CCTGGGTA` has an E-score of -0.218.
The E-score of `GTCGCGAC` is reported as 0.267.
The E-score of `CACTAACC` is reported as -0.081.
With `CACCGTGG` the E-score was -0.0462.
`AAACAGGC` has an E-score of 0.0181.
With `CCACAAGG` the E-score was -0.0466.
For `ATGAACAA`, the E-score was -0.0455.
`AGGGGTGA` has an E-score of -0.241.
For `CTAGAAAA`, the E-score was 0.0289.

A few entries again (study 1):
For `TCAGTGTTCTTTTCTGTTACTGTGCTA`, “fitted relative affinity” read 1.95 z-score.
`GACGGTATTCTACTGCTGACGTGCTAG` — result for “fitted relative affinity”: 0.625 z-score.
For `GACGATATCAATCTCGAGACGTGCTAG`, “fitted relative affinity” read 0.329 z-score.
Under “fitted relative affinity”, `GACGAACTGGGGACTGGCGACGTGCTA` is recorded as -0.342 z-score.
For `GACGGTATCCTTCACCTGACGTGCTAG`, “fitted relative affinity” read 0.951 z-score.
Under “fitted relative affinity”, `GACGGACCGGACTTTCGGGACGTGCTA` is recorded as 1.83 z-score.
For `TTAGGACTGGGGTTACGGTTAGTGCTA`, “fitted relative affinity” read -0.262 z-score.
`TTAGAACTGGGGTTTCGATTAGTGCTA` — result for “fitted relative affinity”: 2.3 z-score.
`TCTACAATGGCTTTGCCTTTGTGCTAG`: “fitted relative affinity” -0.0162 z-score.
`ATAGGTTTCGGTCTCGGTTAGTGCTAG`: “fitted relative affinity” 6.89 z-score.
For `TTAGATCTTAGTCTCGATTAGTGCTAG`, “fitted relative affinity” read 0.242 z-score.
`GCAAAAATGATTGGTTGAACGTGCTAG`: “fitted relative affinity” -0.46 z-score.
